Experimental data from different studies.
Sequence of UniProt Q53GS9 (whole entry, looked up): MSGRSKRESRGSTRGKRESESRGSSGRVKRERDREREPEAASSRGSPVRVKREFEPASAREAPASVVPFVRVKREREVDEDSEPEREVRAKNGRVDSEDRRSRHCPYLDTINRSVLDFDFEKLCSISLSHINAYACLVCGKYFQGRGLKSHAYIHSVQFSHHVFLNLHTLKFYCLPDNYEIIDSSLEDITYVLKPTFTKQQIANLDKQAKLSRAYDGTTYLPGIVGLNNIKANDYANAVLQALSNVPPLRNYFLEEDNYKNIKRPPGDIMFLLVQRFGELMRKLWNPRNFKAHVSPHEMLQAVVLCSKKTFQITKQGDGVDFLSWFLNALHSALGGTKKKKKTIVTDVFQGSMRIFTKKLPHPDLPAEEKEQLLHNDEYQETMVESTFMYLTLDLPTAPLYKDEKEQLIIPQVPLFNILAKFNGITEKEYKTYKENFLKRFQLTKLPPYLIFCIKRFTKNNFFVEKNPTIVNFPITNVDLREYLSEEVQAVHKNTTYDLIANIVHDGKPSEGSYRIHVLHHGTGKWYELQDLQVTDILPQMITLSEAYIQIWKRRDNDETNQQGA
Sequence of UniProt Q70CQ1 (whole entry, looked up): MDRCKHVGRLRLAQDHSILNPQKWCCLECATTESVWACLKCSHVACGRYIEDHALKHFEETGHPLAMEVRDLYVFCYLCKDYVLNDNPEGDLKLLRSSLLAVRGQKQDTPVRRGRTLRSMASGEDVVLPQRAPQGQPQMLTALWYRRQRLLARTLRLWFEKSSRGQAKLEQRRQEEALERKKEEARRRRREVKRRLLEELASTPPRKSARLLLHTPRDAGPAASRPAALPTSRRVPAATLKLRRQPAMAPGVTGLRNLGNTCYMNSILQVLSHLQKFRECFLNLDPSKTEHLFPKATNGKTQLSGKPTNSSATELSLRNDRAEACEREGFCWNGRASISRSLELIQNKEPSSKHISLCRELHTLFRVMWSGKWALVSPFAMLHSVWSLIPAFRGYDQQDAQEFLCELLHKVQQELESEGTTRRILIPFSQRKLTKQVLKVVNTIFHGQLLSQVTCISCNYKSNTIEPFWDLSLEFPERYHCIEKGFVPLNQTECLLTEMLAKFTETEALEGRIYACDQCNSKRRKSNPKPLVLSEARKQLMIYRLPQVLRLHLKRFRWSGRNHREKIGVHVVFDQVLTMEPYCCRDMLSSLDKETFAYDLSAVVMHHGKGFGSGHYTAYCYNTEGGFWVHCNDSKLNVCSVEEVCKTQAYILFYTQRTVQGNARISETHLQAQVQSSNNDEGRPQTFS

O=C(O)CCC(=O)Nc1ccccc1
Kd (Ubiquitin carboxyl-terminal hydrolase 49, ZnF-UBD domain (USP49, Homo sapiens, UniProt Q70CQ1)): > 1 mM

OC(CCN1CCCCC1)(c1ccccc1)C1CC2C=CC1C2 (centres unmarked)
change in EEG Beta3-power Fz-Cz (resting-state EEG; healthy elderly humans; oral, 4 mg, eyes closed, LS mean; relative to: baseline): 5.9%

N#Cc1ccn2c(-c3ccncc3)c(-c3ccc(F)cc3)nc2c1
log2 fold change (kinase binding, competitor, MIB/MS competition, refers to: SAK1; Candida albicans cell lysate; 100 nM; relative to: DMSO): -0.14

CC(C)NCC(O)c1ccc(O)c(O)c1 (centres unmarked)
sarcomere length (ventricular cardiomyocytes, C57BL/6 mouse; dose not given, 0.84 s): 1.51 µm

O=C(O)CCc1cnccn1
Kd (Ubiquitin carboxyl-terminal hydrolase 39, ZnF-UBD domain (Homo sapiens, UniProt Q53GS9)): > 1 mM

CC[C@H](N)C(=O)O
z-scored log2 fold change (binding, equilibrium dialysis LC-MS; 5 µM, thermostabilized A2AR-BRIL construct; relative to: no-protein control, direction not given): 0.285

NC(=O)c1cnc2[nH]ccc2c1N[C@@H]1[C@@H]2CC3C[C@H]1C[C@@](O)(C3)C2
change from baseline (flow cytometry, refers to: memory T cells (CD3+ CD45RA-); Japanese healthy subjects, peripheral blood; oral, 10 mg twice daily, day 7): 2.72%

CC(=O)N[C@H]1[C@H]([C@H](O)[C@H](O)CO)O[C@](OP(=O)(O)OC[C@H]2O[C@@H](n3ccc(N)nc3=O)[C@H](O)[C@@H]2O)(C(=O)O)C[C@@H]1O
z-scored log2 fold change (binding, equilibrium dialysis LC-MS; 5 µM, thermostabilized A2AR-BRIL construct; relative to: no-protein control, direction not given): 0.123

C[C@H](Oc1ccc(Br)cc1-c1ccon1)C(=O)O
interstimulus interval at ESN (muscle velocity recovery cycles; human, tibialis anterior muscle; 600 mg once daily, multiple doses, multiple ascending dose; relative to: placebo): 0.602 ms

Cn1cncc1C[C@H](NC(=O)CCN)C(=O)O
z-scored log2 fold change (binding, equilibrium dialysis LC-MS; 5 µM, thermostabilized A2AR-BRIL construct; relative to: no-protein control, direction not given): 0.201

N#Cc1ccc2c(c1)[C@H]1CCCN(C(=O)c3ccc4[nH]cnc4c3)[C@H]1C2
diastolic blood pressure change (human, Phase II trial; 80 mg once daily, day 28, adjusted mean; relative to: baseline): -1.9 mmHg

Excerpt of the above:
CC(C)NCC(O)c1ccc(O)c(O)c1 (centres unmarked)
sarcomere length (ventricular cardiomyocytes, C57BL/6 mouse; dose not given, 0.84 s): 1.51 µm
